Experimental data from different studies.
Every numbered part comes from another study and shows a few of its results, in no order.

Sample 1
Target: RNA binding protein fox-1 homolog 2, RRM domain, GST-SBP tag (RBFOX2, Homo sapiens, UniProt O43251-10, residues 100-194)
Technique: RNA Bind-n-Seq
Molecule type: RNA
Matrix: in vitro
Concentration: 365 nM
Notes: natural RNA segment, single round, ends assumed
Reference: no-protein control
Reading: higher = stronger binding
Quantity: RBNS enrichment (R)
Construct (chain): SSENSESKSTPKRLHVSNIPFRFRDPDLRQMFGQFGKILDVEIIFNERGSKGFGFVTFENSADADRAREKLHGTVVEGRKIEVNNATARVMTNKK
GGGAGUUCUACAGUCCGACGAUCUGUUUUGAUAUCUGAGAGACAGAAAGGUCUCCCCAGGCUGGUCUCCAACUCCUGGCAAUCCUCCUGCCUCUGUUUCUCAGUUGCUCUGACAACAGGUGUGUACCACCACUUGGAAUUCUCGGGUGCCAA: 0.212
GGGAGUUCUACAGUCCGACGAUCGGCACAGGGAGCCACUGAGGGUCACCCUGCCUUCCUCCUUGCUGGCCCAGCUGCUGUUUAUUUAUGCUUUUUGGUCUGUUUGUUUGAUCUUUUGCUUUUUUAAAAUUGUUUGGAAUUCUCGGGUGCCAA: 2.65
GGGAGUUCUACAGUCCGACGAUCUAGAUGUACAUAUUGUGUCGGUAGGGCUAUGAGGCAUGUUACAGGAAUGUAAUUUUCUCAGAAUUUACACUCACUCGCAGUCAUUUAUUUAAAAAGAUAAAACAAGAUAAUGGAAUUCUCGGGUGCCAA: 0.435
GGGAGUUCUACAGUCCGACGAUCAAUCUCGUGACCAGUGAUUUGGAUUUUAUUUUGUAUUUACAGGGUCUGUCAUUAAUAAUAAUUAACCCCCCUCCCCUCAUGGAACACUCCCGUUUGUACCUCAACAGAUGUGGAAUUCUCGGGUGCCAA: 0.403
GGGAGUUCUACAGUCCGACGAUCUUUCUUGCCUCCUUUUUUGGCAGCCUUCAUCUUUUCCUAAAGCCCUUGAGCCUGUAGGGUUUUCAUAGUGGACAAAGGACUUAAAUGGUCUUUUAAAACUGGGAUAGUUUUGGAAUUCUCGGGUGCCAA: 0.828
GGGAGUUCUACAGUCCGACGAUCUUCAGACACACGAGUCCUCGGAACUGCCUGGCUGCCUGUCACGCAUGCUCUGAGUCAGAACACACCAACGCUCUGCUGUGGCUCCUAGGGAAGCAUUCAUGGUCCUCUGUUGGAAUUCUCGGGUGCCAA: 6.25
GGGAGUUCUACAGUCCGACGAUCAGGACGGGAGCUUCCUUGAAAAAUGUAACCUGGACAUCGUUGUCAAUCCCACAACCCCUGACUCUCUGUGCUUCUAGUCCUGACGGUGUAUUAAACGUCCAUUUAACUUGUGGAAUUCUCGGGUGCCAA: 0.922
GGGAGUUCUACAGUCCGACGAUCUGUGGGAGAGUCAGCCCUGCCCCUCCUCUCCCAUGUGACCCUGUCAUAGUUUGCAGUGUCCUAGGUAGCACUUGGGGAGCCAGGUGCAUUCAGGGUCAGUAGGGAGGACAUGGAAUUCUCGGGUGCCAA: 0.904
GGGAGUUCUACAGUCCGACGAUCCAGCAAACAGCUGAAAGAGGAGGACCCCUGCCUUCCUCUGAGGACAGGCUCUAGAGAGAGGGAGAAACAAGUGGACCUCGUCCCAUCUUCACUCUUCACUUGAGUUGGCUUGGAAUUCUCGGGUGCCAA: 0.253
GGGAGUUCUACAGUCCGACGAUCACCUAGUUUUCAUUGUUGACAAGUGAGGCCAGGCUUCCACUCGACCAAAAGCUAAGGAUUGCCACCCAGCAUUCCAAGCAGACUUGUUUCCUAAAAGCAUCCUUCAUCUGUGGAAUUCUCGGGUGCCAA: 0.42
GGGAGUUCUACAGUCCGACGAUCCACACCUGUAGUCCCAACUAUUCGGCAGGCUGAGGCAGUAGAAUCGCUUGAACCUGGGAGGCGGAGAUUGCAGUGAACCAAGAUCGGGCCACUGCACUCCAGCUUGGGUGUGGAAUUCUCGGGUGCCAA: 0.355
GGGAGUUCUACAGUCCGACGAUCGGGGUUCAGACCUCCACAGGCUAGGUAGCUCAGCUUGCUUACAGACUGGAGACAUUUUCUUGUGUGGUUUUCUGGGUUUCGUCCUUCUGCAGCUGUCAUGGCUUUACAGUUGGAAUUCUCGGGUGCCAA: 0.203

Sample 2
Target: Ras GTPase-activating protein-binding protein 1, full length (G3BP1, Homo sapiens, UniProt Q13283)
Sequence of UniProt Q13283 (whole entry, looked up): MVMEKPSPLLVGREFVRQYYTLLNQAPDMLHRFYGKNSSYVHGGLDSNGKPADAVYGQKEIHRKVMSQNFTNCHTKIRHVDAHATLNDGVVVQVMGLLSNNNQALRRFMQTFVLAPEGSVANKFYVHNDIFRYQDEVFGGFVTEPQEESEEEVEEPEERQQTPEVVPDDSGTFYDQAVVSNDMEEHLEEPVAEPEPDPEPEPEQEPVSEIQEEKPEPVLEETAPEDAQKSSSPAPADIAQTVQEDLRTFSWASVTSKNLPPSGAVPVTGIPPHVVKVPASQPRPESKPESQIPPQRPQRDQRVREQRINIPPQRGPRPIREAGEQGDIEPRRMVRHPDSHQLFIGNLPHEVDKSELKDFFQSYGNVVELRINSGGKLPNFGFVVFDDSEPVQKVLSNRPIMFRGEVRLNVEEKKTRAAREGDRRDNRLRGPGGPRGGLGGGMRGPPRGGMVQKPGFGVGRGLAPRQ
Technique: RNA Bind-n-Seq
Molecule type: RNA
Matrix: in vitro
Concentration: 200 nM
Notes: whole 134-nt RNA, ends assumed
Together with: 150 mM KCl
Reference: input library
Reading: higher = stronger binding
Quantity: log2 enrichment
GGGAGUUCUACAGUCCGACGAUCCACAGACAACACGCACCCACAAAAACACAGAGGGAAGGGGUUGGGAUGGGGACAGGGUGCACAGCAGGGCGGGGUAGGACCCCAGCCCCUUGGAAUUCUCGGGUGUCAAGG: 1.9
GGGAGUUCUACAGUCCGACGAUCUGGCCCUGGUGGCAUGCGGGGAGGAAGAGGUGGCCUCAUGUAUCGUGGUGGUCCCGGUGGAAUGUUCAGAGGUGGCCGUGGUGGAGACAGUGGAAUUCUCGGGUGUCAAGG: 0.0416
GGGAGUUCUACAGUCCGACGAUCCCUCAAGUCCUGUGCUACACAUCGUAUGUACCGAAUCGGUGGGGUGGGUGGGAAAGUAUUAUGUUACGCCGUUCGGAUCUGCACUUCCAGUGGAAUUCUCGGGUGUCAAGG: 1.13
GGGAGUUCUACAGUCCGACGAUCCAAGUCCUGUGCUACACAUCGUAUGUACCGAAUCGGGCCGGGGCCGGGGCCGGGGAAAGUAUUAUGUUACGCCGUUCGGAUCUGCACUUCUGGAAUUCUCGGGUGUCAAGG: -0.496
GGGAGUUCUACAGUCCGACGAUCGCACGAAGUAAAAACAAAUGGAAAUGCUUCGGAUAGUGGCAGGGGUGGGGGUUGCUAAGGAAAGGGUGGGAUGGGAGUGGGUAAAGAGUUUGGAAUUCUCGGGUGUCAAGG: 0.945
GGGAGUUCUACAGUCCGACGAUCUUCCUCAAGUCCUGUGCUACACAUCGUAUGUACCGAAUCGGCGGCGGCGGGAAAGUAUUAUGUUACGCCGUUCGGAUCUGCACUUCCAGCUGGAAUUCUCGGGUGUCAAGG: -0.124
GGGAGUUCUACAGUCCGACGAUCAGUCCUGUGCUACACAUCGUAUGUACCGAAUCGGAAAAAGGAAAAAGGAAAAAGGGGAAAGUAUUAUGUUACGCCGUUCGGAUCUGCACUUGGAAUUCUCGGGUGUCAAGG: -1.13
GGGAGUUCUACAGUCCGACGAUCCCUCAAGUCCUGUGCUACACAUCGUAUGUACCGAAUCGGUUUGGAAAGGUGGAAAGUAUUAUGUUACGCCGUUCGGAUCUGCACUUCCAGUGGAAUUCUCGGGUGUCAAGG: -0.086
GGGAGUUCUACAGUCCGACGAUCACCAUGCAGGUGGGCAUCUUUGGGAAGUGGGGCAAGGGGGGGAUAGGGAGGGGGGUAAAAAUUUGGGAACAGGUGGUCCCAGGUCGUUUCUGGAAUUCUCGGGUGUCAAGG: 1.28
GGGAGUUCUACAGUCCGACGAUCGUCCUGUGCUACACAUCGUAUGUACCGAAUCGGGGCCCCCGGGGCCCCCGGGCCCCCGGAAAGUAUUAUGUUACGCCGUUCGGAUCUGCAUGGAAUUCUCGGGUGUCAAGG: 1.17
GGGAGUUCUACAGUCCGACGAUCUCCUGUGCUACACAUCGUAUGUACCGAAUCGGGAAAGGGUUUUUUUGGGUUUUUUUGGGAAAGUAUUAUGUUACGCCGUUCGGAUCUGCAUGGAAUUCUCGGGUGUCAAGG: -0.419
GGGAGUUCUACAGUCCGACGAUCCUCAAGUCCUGUGCUACACAUCGUAUGUACCGAAUCGGGGUGGGUGGGGUGGGAAAGUAUUAUGUUACGCCGUUCGGAUCUGCACUUCCAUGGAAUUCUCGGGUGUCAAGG: 1.33
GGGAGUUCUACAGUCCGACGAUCCUCAGCAGACCCUGAAGGACACUUUGAGACACCAAUCUGGAUUGAGCGGGUGGUGAUAAUAGGGGCUGGAAAGCCAGCAGCUGUGGUACUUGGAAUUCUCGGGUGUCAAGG: 0.604
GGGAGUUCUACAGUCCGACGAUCUCAAGUCCUGUGCUACACAUCGUAUGUACCGAAUCGGCCCGGGCCCGGGCCCGGGAAAGUAUUAUGUUACGCCGUUCGGAUCUGCACUUCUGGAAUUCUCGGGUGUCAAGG: -1.03

Sample 3
Target: Sal-like protein 4, full length isoform A (SALL4, Homo sapiens, UniProt Q9UJQ4, residues 1-1053)
Sequence of UniProt Q9UJQ4 (whole entry, looked up): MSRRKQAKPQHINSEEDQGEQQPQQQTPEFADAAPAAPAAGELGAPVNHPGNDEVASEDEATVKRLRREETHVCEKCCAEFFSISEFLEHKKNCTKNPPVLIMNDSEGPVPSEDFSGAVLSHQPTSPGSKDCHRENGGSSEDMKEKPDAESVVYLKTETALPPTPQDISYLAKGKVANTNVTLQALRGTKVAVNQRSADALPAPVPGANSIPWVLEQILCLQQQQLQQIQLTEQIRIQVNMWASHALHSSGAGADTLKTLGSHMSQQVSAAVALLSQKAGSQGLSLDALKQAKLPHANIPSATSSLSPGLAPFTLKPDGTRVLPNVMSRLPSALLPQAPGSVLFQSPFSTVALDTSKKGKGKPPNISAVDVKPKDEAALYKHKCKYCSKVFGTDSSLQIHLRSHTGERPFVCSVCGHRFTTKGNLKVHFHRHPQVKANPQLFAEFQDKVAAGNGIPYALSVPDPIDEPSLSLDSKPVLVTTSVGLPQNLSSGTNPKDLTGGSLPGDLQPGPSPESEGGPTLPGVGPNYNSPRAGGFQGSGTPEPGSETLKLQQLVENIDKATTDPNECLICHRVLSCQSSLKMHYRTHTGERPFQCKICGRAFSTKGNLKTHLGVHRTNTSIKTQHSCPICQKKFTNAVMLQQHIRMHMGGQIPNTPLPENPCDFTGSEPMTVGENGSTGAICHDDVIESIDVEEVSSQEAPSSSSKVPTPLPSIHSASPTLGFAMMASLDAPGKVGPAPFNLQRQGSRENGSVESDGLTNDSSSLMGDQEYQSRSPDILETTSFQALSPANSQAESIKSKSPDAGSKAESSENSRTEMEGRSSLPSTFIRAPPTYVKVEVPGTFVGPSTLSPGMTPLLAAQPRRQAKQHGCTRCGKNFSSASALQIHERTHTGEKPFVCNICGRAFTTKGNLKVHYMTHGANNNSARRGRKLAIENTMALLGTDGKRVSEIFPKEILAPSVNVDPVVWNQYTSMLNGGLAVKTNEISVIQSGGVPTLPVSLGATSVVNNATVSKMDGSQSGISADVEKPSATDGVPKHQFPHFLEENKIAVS
Technique: universal PBM
Molecule type: double-stranded DNA, one strand shown
Matrix: in vitro
Concentration: 600 nM
Notes: 8-mer, flanks averaged, mean of replicates
Reading: higher = stronger binding
Quantity: E-score
GCCTTGCC: -0.228
AACAGAAC: 0.0946
GATTGTAC: -0.103
AACAGAAG: 0.161
AAAAAAAA: 0.37
GCAGGCAA: -0.0475
ATAAGCTG: 0.153
GCCAAACC: -0.176
GAGTCGCC: -0.378
AGTTAATG: 0.296
GCCCACCC: -0.136
CAACGCCG: -0.301
AATCCCGA: 0.0511
AGGTTTTC: 0.143
GCTGTGCC: -0.229
GCTCAACA: -0.0536
GATGAATC: 0.0968

Sample 4
Target: Interferon regulatory factor 7, full length, phosphomimetic (IRF7, Homo sapiens, UniProt Q92985, residues 1-503, S101K/S471D/S472D/S475D/S476D/S477D/S483D/S484D/S487D)
Technique: protein-binding microarray
Molecule type: double-stranded DNA, one strand shown
Matrix: in vitro
Concentration: 250 nM
Notes: 60-bp whole probe
Together with: salmon DNA 0.4 mg/ml
Reference: random background probes
Reading: higher = stronger binding
Quantity: log fluorescence
Shared flanks, not repeated: GCCTAGCAC … GTCTTGATTCGCTTGACGCTGCTG
Construct (chain): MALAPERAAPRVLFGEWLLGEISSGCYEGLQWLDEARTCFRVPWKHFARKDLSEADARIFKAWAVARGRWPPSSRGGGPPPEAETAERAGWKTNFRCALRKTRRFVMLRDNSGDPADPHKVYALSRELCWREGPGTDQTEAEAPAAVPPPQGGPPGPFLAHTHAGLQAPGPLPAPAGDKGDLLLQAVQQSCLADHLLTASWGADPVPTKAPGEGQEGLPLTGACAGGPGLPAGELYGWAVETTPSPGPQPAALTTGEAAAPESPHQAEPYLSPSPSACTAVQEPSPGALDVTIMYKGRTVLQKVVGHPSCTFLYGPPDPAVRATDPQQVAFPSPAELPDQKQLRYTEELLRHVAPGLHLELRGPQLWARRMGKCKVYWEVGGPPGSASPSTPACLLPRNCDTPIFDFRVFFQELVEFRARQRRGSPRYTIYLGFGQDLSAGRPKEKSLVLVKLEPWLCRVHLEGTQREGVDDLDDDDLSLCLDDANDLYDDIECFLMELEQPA
GGGTGAATGTGTCTTAAATAGTGCTAG: -0.423 z-score
TCACTTTTCCATTTTGTACTGTGCTAG: 2.65 z-score
GGCCCAGGAGGAGGCCCCTCGTGCTAG: -0.139 z-score
TCACCTTTCAATCCTAGACTGTGCTAG: 0.954 z-score
TTAGATTTCAGTCCCGATTAGTGCTAG: 0.912 z-score
TTAGGTATCGGACTGGGTTCGTGCTAG: 0.244 z-score
TTAGGTATGCTACTGCTTTAGTGCTAG: -0.594 z-score
TTAGATATCGGCTTTCGATTAGTGCTA: 0.662 z-score
TTAGAACTGGGGTATCGATTGGTGCTA: 0.404 z-score
GACGGAGTGGGGTATCGGGACGTGCTA: -0.576 z-score
TCACATCTTCCTCTGCCACTGTGCTAG: 0.853 z-score
TAAGGTCTCGGTATCGGTTAGTGCTAG: 3.49 z-score
CATTCTCTGCTTCTGTATGGGTGCTAG: 2.12 z-score
GACGATTTCAGACTAGAGACGTGCTAG: 0.32 z-score
GACGCACTGGGACTGGGGACGTGCTAG: -0.178 z-score
TTAGGTGTCCTTATCCTTTAGTGCTAG: -0.338 z-score
GACGGTATCCTTCTACTGACGTGCTAG: 0.0466 z-score
TGGCTTTGCCTTTTGCTTTAGTGCTAG: -0.586 z-score
CTAGATCTCAGTCTCGATTAGTGCTAG: 1.93 z-score
TGAGGTTTCGGTCTCGGTTAGTGCTAG: 8.23 z-score
CACAGTTTGTAAATCTTTTTGTGCTAG: 0.333 z-score
GACGATATCGGGTTTCGACACGTGCTA: 1.67 z-score
TTATGTTTCGACTTTCGGTTAGTGCTA: 6.8 z-score
TTAGATATCAGTTTCGAATAGTGCTAG: 4.02 z-score
TTACAACTGAGTTTCGATTAGTGCTAG: 7.98 z-score

Excerpt of the above (sample 4):
TTAGGTATGCTACTGCTTTAGTGCTAG: -0.594 z-score
GACGGAGTGGGGTATCGGGACGTGCTA: -0.576 z-score
GACGATTTCAGACTAGAGACGTGCTAG: 0.32 z-score
TTAGATTTCAGTCCCGATTAGTGCTAG: 0.912 z-score
TCACTTTTCCATTTTGTACTGTGCTAG: 2.65 z-score
TTAGATATCAGTTTCGAATAGTGCTAG: 4.02 z-score
TCACATCTTCCTCTGCCACTGTGCTAG: 0.853 z-score
